Results of several laboratories.
Protocols differ between the studies behind these lines. ± gives the spread as reported.

Cc1c(COC(=O)[C@@H]2[C@H](/C=C(\Cl)C(F)(F)F)C2(C)C)cccc1-c1ccccc1 (racemic)  CLint (pooled human liver cytosol): 0 mL/min/mg
CC(=O)c1c([O-])cc(C)oc1=O.[Na+]  volume of distribution (male Wistar rat, plasma; oral, 200 mg/kg, no CYP inhibitor): 0.8 ± 0.094 L/kg
COc1cc2c(Oc3ccc4[nH]c(C)cc4c3F)ccnc2cc1OCC1(N)CC1  grade 1 or 2 Neutropenia (paediatric recurrent refractory sarcoma; 8 mg/kg): 6.7%
O.O.O.O.O.O.[Cl-].[Cl-].[Co+2]  reticulocytes (Crl:CD(SD) rat female, blood; oral, 0.74 mg Co/kg/day, 90 days; reference: red blood cells): 12%
Cn1cncc1-c1c(F)cncc1NC(=O)c1c(N)nn2cc(F)cnc12  dose-limiting toxicity upper GI haemorrhage (human patients; oral, 220 mg once daily, 21 days): 0%
NC(=O)[C@H]1CCN(c2ncnc(N)c2F)C[C@@H]1N1CCC[C@@H](Nc2cc(Cl)cc(C(F)(F)F)c2)C1=O  grade ≥3 thrombocytopenia (B-cell malignancy patients; oral, 410 mg twice daily, dose): 0%
CN1CCN(S(=O)(=O)c2cc([N+](=O)[O-])ccc2N(CCOS(C)(=O)=O)CCOS(C)(=O)=O)CC1  concentration (NSG mice female, plasma; intraperitoneal, 5 mg/kg, 1 h): 20 nM
CC(C)NCCCC[C@@H]1NC(=O)[C@H](Cc2ccc(O)cc2)NC(=O)[C@H](Cc2ccccc2)NC(=O)CC[C@H](C(=O)N[C@@H](CCCCNC(C)C)C(=O)N[C@@H](CCCCNC(=O)[C@H](CCC(=O)O)NC(=O)[C@H](CCC(=O)O)NC(=O)[C@H](CCC(=O)O)NC(=O)CN2CCN(CC(=O)O)CCN(CC(=O)O)CC2)C(N)=O)NC(=O)CNC(=O)[C@H](Cc2ccc3ccccc3c2)NC(=O)[C@@H](CCCNC(=N)N)NC1=O [fluorine-18 labelled]  parent fraction (rhesus macaque, urine; 180 min post-injection): 57.6%
CN(C)c1ccc(O)c2c1C[C@H]1C[C@H]3[C@H](N(C)C)C(O)=C(C(N)=O)C(=O)[C@@]3(O)C(O)=C1C2=O  IC50 (Plasmodium falciparum; D10): 7.94 µM
COc1ncccc1-c1cnn2ccc(N3CCN(C(=O)OC(C)C)CC3)nc12  free drug concentration (rat, STZ model, plasma; oral, 10 mg/kg, 240 min): 81 nM
OC(CN1CCC(Cc2ccc(F)cc2)CC1)c1ccc(Cl)cc1 (stereo not drawn)  IC50 (Plasmodium falciparum; 7G8): 0.398 µM
O=C(Nc1ccccc1)C1CCN(C(=O)Oc2cccnc2)CC1  TEAE incidence (item: memory impairment; healthy female humans; concentration not given, safety set, all doses pooled): 13%
CCN1[C@@H](C(=O)NC23CCC(C(=O)O)(CC2)CC3)[C@H](c2cccc(Cl)c2F)[C@]2(C(=O)Nc3cc(Cl)ccc32)C12CCCCC2  Headache incidence (patients with advanced solid tumours; oral, 200 mg): 0%
CN1CC[C@@H](c2c(O)cc(O)c3c(=O)cc(-c4ccc(C(F)(F)F)cc4Cl)oc23)[C@@H]1CO  patients with adverse event (item: Chills; B-cell malignancies; oral, 150 mg, intermittent dosing): 0%
CN1C(=O)[C@@H](NC(=O)c2nnc(Cc3ccccc3)[nH]2)COc2cccnc21  participants with TEAE leading to death (phase I multiple ascending dose; human, male and female; oral, 50 mg, 14 days): 0%
Clc1cc(Cl)c(-c2cc(Cl)ccc2Cl)c(Cl)c1  log K(PDMS-water) (fresh water; 20 °C, S30-2 sampler, 30 µm): 6.07 ± 0.01
CC(C)C[C@@H]1NC(=O)CNC(=O)[C@H](CC(N)=O)NC(=O)[C@H](CCCNC(=N)N)NC(=O)[C@H]([C@@H](C)O)NC(=O)[C@@H]2CSSC[C@@H]3NC(=O)[C@H]([C@@H](C)O)NC(=O)CNC(=O)CNC(=O)[C@H](C(C)C)NC(=O)[C@@H]4CSSC[C@H](NC(=O)[C@H]([C@@H](C)O)NC(=O)[C@H](CSSC[C@H](NC(=O)[C@H](C(C)C)NC(=O)[C@@H]5CCCN5C1=O)C(=O)NCC(=O)N[C@@H](CCC(=O)O)C(=O)N[C@@H]([C@@H](C)O)C(=O)N4)NC(=O)CNC(=O)[C@@H]1CCCN1C(=O)[C@H]([C@@H](C)O)NC(=O)[C@H](CCCCN)NC3=O)C(=O)N[C@@H](CO)C(=O)N[C@@H](Cc1c[nH]c3ccccc13)C(=O)N1CCC[C@H]1C(=O)N[C@@H](C(C)C)C(=O)N2  remaining peptide (HPLC; ammonium bicarbonate; 180 µM, 7 days, pH 9.0, 25 °C, deamidation stability): 95.5 ± 0.9%
O=C(Nc1ccccc1)C1CCN(C(=O)Oc2cccnc2)CC1  change in Strong-feeble score (Bond-Lader VAS; healthy women; 100 mg; reference: pre-dose baseline, direction not given): -9.9
CC[C@H](C)[C@H](NC(=O)[C@H](CO)NC(=O)[C@H](CCCNC(=N)N)NC(C)=O)C(=O)N[C@H]1CSSC[C@@H](C(=O)N[C@H](C(N)=O)[C@@H](C)O)NC(=O)[C@H](CCCNC(=N)N)NC(=O)[C@H](Cc2c[nH]cn2)NC(=O)[C@H](C)NC(=O)CNC(=O)[C@H](Cc2c[nH]c3ccccc23)NC(=O)[C@H](CC(=O)O)NC(=O)[C@H](CCC(N)=O)NC(=O)[C@H](Cc2c[nH]c3ccccc23)NC(=O)[C@H](C(C)C)NC1=O  log retention factor (isocratic RP-HPLC; C18 column; pH 7.4, 25 °C, elution method 2; higher = more lipophilic): -0.306
COc1ncnn2ccc(-c3cnc4nc(C)n(Cc5nnc([C@@H](C)F)o5)c4c3)c12  patients with vomiting (human; oral, dose not given, grade 4): 0%
CCc1ccc(CC/C=C/c2ccc3c(c2)C(=O)CC3)cc1  Erythrocyte percentage (Sprague-Dawley rat, female; oral, 450 mg/kg/day, 14 days): 11.1%
CC/N=c1/scc(-c2ccc(Br)cc2)n1/N=C/c1ccc(O)c(O)c1O  IC50 (Gag-Pol polyprotein, integrase with LEDGF/p75 (gag-pol, Human immunodeficiency virus 1, UniProt P12497); LEDGF/p75-integrase interaction, inhibitor, AlphaScreen): < 25 µM
COc1ccc2nc3cc(Cl)ccc3c(Nc3cc(CN4CCCC4)c(O)c(CN4CCCC4)c3)c2n1  lymphocytes (mouse, blood; intraperitoneal, 28 mg/kg): 64%
CC(C)C[C@@H]1NC(=O)CNC(=O)[C@H](CC(N)=O)NC(=O)[C@H](CCCNC(=N)N)NC(=O)[C@H]([C@@H](C)O)NC(=O)[C@@H]2CSSC[C@@H]3NC(=O)[C@H]([C@@H](C)O)NC(=O)CNC(=O)CNC(=O)[C@H](CCCCN)NC(=O)[C@@H]4CSSC[C@H](NC(=O)[C@H]([C@@H](C)O)NC(=O)[C@H](CSSC[C@H](NC(=O)[C@H](C(C)C)NC(=O)[C@@H]5CCCN5C1=O)C(=O)NCC(=O)N[C@@H](CCC(=O)O)C(=O)N[C@@H]([C@@H](C)O)C(=O)N4)NC(=O)CNC(=O)[C@@H]1CCCN1C(=O)[C@H]([C@@H](C)O)NC(=O)[C@H](CC(N)=O)NC3=O)C(=O)N[C@@H](CO)C(=O)N[C@@H](Cc1c[nH]c3ccccc13)C(=O)N1CCC[C@H]1C(=O)N[C@@H](C(C)C)C(=O)N2  remaining peptide (HPLC; ammonium bicarbonate; 180 µM, 14 days, pH 9.0, 25 °C, deamidation stability): 90.5 ± 1.8%
Clc1cc(Cl)cc(-c2ccccc2)c1  literature range factor (PDMS-water partitioning; PCB compilation; reference: maximum over minimum K): 1.3
CCC[C@@](N)(CO)CCc1ccc(OCCCCCC(C)C)cc1  half-life (male hound dog, plasma; oral, 20 mg/kg, capsule, fasted, median): 26.7 h
O=S(=O)(Nc1ccccc1)c1ccc(NC(=S)Nc2ccccc2)cc1  potassium level (male mouse, blood; oral, 20 mg/kg daily, 14 days): 8.87 mmol/L
COc1cc2c(cc1OC)CN(CCc1ccc(NC(=O)c3cccc4c(=O)c5cccc(OC)c5[nH]c34)cc1)CC2  elimination rate constant (CD-1 mouse, male, plasma; intraperitoneal, 3 mg/kg): 2.7e-05 s⁻¹
O=C1Nc2cc3[nH]nc(-c4ccncc4)c3cc2CN1Cc1ccccc1  patients with acneiform dermatitis (CTCAE v4.03; advanced solid tumour patients; intravenous, 9.6 mg/kg, schedules 1/2): 22%
CO[C@H]1C[C@@H]2CC[C@@H](C)[C@@](O)(O2)C(=O)C(=O)N2CCCC[C@H]2C(=O)O[C@H]([C@H](C)C[C@@H]2CC[C@@H](OC(=O)NCCOCCOCCOCCOCCOCCOCCOCCOCCC(=O)N3CCc4cc(Cn5nc(-c6ccc7oc(N)nc7c6)c6c(N)ncnc65)ccc4C3)[C@H](OC)C2)C[C@@H](O)[C@H](C)/C=C(\C)[C@@H](O)[C@@H](OC)C(=O)[C@H](C)C[C@H](C)/C=C/C=C/C=C/1C  headache incidence (patients with advanced solid tumours; intravenous, 8 mg weekly, grade 3 or higher): 0%

Repeated from above:
NC(=O)[C@H]1CCN(c2ncnc(N)c2F)C[C@@H]1N1CCC[C@@H](Nc2cc(Cl)cc(C(F)(F)F)c2)C1=O  grade ≥3 thrombocytopenia (B-cell malignancy patients; oral, 410 mg twice daily, dose): 0%
CC(C)C[C@@H]1NC(=O)CNC(=O)[C@H](CC(N)=O)NC(=O)[C@H](CCCNC(=N)N)NC(=O)[C@H]([C@@H](C)O)NC(=O)[C@@H]2CSSC[C@@H]3NC(=O)[C@H]([C@@H](C)O)NC(=O)CNC(=O)CNC(=O)[C@H](CCCCN)NC(=O)[C@@H]4CSSC[C@H](NC(=O)[C@H]([C@@H](C)O)NC(=O)[C@H](CSSC[C@H](NC(=O)[C@H](C(C)C)NC(=O)[C@@H]5CCCN5C1=O)C(=O)NCC(=O)N[C@@H](CCC(=O)O)C(=O)N[C@@H]([C@@H](C)O)C(=O)N4)NC(=O)CNC(=O)[C@@H]1CCCN1C(=O)[C@H]([C@@H](C)O)NC(=O)[C@H](CC(N)=O)NC3=O)C(=O)N[C@@H](CO)C(=O)N[C@@H](Cc1c[nH]c3ccccc13)C(=O)N1CCC[C@H]1C(=O)N[C@@H](C(C)C)C(=O)N2  remaining peptide (HPLC; ammonium bicarbonate; 180 µM, 14 days, pH 9.0, 25 °C, deamidation stability): 90.5 ± 1.8%
CC[C@H](C)[C@H](NC(=O)[C@H](CO)NC(=O)[C@H](CCCNC(=N)N)NC(C)=O)C(=O)N[C@H]1CSSC[C@@H](C(=O)N[C@H](C(N)=O)[C@@H](C)O)NC(=O)[C@H](CCCNC(=N)N)NC(=O)[C@H](Cc2c[nH]cn2)NC(=O)[C@H](C)NC(=O)CNC(=O)[C@H](Cc2c[nH]c3ccccc23)NC(=O)[C@H](CC(=O)O)NC(=O)[C@H](CCC(N)=O)NC(=O)[C@H](Cc2c[nH]c3ccccc23)NC(=O)[C@H](C(C)C)NC1=O  log retention factor (isocratic RP-HPLC; C18 column; pH 7.4, 25 °C, elution method 2; higher = more lipophilic): -0.306
